Measured values collected from several papers.
A part holds a random share of what one study measured.
UniProt P36897, sequence (whole entry, looked up): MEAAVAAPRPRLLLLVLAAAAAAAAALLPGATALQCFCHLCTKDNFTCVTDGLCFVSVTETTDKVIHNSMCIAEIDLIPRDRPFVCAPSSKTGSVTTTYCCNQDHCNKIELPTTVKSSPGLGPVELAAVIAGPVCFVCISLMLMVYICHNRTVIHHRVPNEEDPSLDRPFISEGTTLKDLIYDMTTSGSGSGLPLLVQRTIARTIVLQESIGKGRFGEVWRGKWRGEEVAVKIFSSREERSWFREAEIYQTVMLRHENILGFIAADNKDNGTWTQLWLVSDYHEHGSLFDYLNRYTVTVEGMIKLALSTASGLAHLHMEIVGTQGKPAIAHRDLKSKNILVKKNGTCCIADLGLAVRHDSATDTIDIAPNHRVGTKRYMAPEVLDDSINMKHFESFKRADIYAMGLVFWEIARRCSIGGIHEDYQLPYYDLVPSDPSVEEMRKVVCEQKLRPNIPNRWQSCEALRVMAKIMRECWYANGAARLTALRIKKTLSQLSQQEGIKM
UniProt Q6DT37, sequence (whole entry, looked up): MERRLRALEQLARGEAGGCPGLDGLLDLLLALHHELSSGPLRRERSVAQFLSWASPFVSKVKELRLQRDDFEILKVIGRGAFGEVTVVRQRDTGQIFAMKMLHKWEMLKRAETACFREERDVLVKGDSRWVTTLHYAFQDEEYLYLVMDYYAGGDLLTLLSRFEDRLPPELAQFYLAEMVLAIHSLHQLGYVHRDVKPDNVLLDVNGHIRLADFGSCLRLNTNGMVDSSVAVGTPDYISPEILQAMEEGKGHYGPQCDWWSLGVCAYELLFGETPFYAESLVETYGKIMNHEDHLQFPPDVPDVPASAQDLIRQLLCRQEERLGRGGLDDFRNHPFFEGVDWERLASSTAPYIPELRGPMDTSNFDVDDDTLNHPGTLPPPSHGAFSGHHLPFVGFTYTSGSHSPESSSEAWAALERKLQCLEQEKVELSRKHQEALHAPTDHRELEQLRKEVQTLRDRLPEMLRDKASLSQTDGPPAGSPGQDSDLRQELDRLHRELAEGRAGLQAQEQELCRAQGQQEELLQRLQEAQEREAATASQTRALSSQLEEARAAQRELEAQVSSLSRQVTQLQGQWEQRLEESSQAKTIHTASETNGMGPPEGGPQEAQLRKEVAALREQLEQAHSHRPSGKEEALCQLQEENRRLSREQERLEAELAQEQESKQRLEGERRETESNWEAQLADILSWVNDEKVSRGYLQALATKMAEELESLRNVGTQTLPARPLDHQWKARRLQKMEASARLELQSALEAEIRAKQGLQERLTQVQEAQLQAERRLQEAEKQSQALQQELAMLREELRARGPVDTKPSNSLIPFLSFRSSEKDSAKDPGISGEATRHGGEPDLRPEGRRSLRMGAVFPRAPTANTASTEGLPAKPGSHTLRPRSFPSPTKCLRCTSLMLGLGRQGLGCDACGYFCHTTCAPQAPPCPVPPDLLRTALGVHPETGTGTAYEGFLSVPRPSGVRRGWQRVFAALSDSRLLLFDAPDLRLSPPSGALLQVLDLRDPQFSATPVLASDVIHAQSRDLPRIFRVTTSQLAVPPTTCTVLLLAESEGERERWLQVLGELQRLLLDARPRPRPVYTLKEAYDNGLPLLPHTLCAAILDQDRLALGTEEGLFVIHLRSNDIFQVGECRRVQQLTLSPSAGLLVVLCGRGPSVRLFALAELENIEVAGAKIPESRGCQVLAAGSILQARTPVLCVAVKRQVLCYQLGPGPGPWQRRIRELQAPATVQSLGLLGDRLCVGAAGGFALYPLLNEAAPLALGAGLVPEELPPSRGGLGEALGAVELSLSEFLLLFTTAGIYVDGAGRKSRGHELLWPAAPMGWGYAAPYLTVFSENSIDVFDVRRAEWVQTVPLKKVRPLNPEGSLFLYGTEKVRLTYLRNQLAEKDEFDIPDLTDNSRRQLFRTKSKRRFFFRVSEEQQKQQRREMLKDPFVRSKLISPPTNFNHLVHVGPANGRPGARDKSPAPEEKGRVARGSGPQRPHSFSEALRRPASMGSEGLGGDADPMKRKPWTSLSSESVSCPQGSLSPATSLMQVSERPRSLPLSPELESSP
UniProt Q00535, sequence (whole entry, looked up): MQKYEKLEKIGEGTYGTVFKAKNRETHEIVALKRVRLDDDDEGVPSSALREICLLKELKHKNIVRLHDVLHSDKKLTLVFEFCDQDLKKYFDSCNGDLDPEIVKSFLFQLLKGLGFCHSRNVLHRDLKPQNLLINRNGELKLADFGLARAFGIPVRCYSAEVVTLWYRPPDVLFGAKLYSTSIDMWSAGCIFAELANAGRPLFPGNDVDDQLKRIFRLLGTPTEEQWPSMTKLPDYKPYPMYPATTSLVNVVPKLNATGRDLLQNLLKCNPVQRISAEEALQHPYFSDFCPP
UniProt P50613, sequence (whole entry, looked up): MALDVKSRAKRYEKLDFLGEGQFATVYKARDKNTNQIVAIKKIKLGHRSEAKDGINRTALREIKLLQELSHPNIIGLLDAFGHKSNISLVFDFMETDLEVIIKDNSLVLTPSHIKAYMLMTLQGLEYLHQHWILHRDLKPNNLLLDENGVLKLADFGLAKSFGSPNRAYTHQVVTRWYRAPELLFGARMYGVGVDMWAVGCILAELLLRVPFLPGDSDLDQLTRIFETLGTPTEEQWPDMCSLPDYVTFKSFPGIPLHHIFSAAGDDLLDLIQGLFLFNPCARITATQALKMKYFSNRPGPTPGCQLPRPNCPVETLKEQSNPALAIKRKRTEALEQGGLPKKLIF
UniProt Q15569, sequence (whole entry, looked up): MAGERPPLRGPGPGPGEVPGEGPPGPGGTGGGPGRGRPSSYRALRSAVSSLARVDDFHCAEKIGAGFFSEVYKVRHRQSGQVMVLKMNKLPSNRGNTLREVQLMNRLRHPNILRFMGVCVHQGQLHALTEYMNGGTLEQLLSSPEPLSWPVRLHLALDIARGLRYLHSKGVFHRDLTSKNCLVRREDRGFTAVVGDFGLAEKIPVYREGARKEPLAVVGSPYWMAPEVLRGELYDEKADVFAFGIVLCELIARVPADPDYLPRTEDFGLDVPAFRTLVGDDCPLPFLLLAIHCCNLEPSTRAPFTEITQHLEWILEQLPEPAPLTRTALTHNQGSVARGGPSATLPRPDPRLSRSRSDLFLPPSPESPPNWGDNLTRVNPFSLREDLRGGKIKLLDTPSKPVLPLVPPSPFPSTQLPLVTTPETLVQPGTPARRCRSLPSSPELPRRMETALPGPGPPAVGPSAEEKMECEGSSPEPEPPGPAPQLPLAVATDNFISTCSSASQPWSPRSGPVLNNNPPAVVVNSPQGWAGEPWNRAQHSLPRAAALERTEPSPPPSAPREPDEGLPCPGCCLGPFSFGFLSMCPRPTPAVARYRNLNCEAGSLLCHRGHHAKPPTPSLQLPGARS
UniProt P37173, sequence (whole entry, looked up): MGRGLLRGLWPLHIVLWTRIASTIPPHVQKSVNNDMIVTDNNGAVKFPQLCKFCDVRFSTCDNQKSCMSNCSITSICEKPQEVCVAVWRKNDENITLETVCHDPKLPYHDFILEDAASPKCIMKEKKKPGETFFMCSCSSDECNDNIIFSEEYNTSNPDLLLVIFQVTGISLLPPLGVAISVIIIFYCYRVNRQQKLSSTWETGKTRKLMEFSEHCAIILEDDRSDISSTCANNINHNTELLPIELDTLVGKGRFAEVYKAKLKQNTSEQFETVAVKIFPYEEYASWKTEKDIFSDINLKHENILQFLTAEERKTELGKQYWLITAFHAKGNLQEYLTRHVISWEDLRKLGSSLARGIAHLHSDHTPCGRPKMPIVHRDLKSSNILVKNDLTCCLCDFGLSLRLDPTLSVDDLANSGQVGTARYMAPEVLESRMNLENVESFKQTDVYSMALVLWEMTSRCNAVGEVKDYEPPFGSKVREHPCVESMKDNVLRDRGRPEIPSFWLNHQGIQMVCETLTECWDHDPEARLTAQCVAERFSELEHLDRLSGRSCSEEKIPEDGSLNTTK
UniProt O96017, sequence (whole entry, looked up): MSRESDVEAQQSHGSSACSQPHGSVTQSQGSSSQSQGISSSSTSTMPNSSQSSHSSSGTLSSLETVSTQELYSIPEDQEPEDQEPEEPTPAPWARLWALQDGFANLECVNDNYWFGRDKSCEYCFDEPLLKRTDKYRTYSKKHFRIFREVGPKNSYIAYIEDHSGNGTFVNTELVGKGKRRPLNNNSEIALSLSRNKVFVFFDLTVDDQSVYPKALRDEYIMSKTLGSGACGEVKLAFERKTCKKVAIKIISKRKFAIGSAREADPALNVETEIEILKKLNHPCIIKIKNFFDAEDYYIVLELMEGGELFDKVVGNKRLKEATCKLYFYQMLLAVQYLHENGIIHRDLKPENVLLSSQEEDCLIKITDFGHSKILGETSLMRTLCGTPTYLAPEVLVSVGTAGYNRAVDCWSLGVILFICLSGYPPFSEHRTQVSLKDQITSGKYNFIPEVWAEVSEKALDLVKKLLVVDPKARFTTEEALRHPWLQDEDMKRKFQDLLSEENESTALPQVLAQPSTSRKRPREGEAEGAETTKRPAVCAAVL
UniProt Q8IW41, sequence (whole entry, looked up): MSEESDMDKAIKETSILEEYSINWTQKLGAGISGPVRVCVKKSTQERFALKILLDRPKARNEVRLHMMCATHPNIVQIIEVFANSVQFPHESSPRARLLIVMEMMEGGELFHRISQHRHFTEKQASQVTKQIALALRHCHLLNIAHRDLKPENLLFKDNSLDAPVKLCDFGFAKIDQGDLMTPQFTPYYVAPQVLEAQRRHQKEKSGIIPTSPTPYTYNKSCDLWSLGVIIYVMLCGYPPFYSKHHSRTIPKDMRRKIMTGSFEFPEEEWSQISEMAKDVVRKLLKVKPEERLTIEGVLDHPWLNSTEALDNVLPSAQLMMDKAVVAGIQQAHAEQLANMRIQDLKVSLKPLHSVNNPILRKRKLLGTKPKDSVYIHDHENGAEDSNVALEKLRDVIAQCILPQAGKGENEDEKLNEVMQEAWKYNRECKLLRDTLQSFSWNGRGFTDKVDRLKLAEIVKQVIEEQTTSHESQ

Set 1
Structure (SMILES): CNC(=O)Nc1ccc2c(c1)CC[C@@]21OC(=O)N(CC(=O)N(Cc2ccc(F)cc2)[C@@H](C)C(F)(F)F)C1=O
Tested at: 1 µM
target	assay	remaining binding [%]
Mast/stem cell growth factor receptor Kit, autoinhibited (KIT, Homo sapiens, UniProt P10721)	cell-free assay, competition with immobilised ligand	97
Tyrosine-protein kinase ZAP-70 (ZAP70, Homo sapiens, UniProt P43403)	cell-free assay, competition with immobilised ligand	73
Serine/threonine-protein kinase RIO1 (RIOK1, Homo sapiens, UniProt Q9BRS2)	cell-free assay, competition with immobilised ligand	100
Transient receptor potential cation channel subfamily M member 6 (TRPM6, Homo sapiens, UniProt Q9BX84)	cell-free assay, competition with immobilised ligand	100
Protein kinase C theta type (PRKCQ, Homo sapiens, UniProt Q04759)	cell-free assay, competition with immobilised ligand	71
Fibroblast growth factor receptor 3 (FGFR3, Homo sapiens, UniProt P22607)	cell-free assay, competition with immobilised ligand	82
Tyrosine-protein kinase ABL1, phosphorylated (ABL1, Homo sapiens, UniProt P00519, H396P)	cell-free assay, competition with immobilised ligand	74
Leucine-rich repeat serine/threonine-protein kinase 2 (LRRK2, Homo sapiens, UniProt Q5S007)	cell-free assay, competition with immobilised ligand	79
Dual specificity testis-specific protein kinase 1 (TESK1, Homo sapiens, UniProt Q15569)	cell-free assay, competition with immobilised ligand	73
Serine/threonine-protein kinase MRCK gamma (CDC42BPG, Homo sapiens, UniProt Q6DT37)	competition binding	88
Rhodopsin kinase GRK1 (GRK1, Homo sapiens, UniProt Q15835)	cell-free assay, competition with immobilised ligand	82
TGF-beta receptor type-1 (TGFBR1, Homo sapiens, UniProt P36897)	cell-free assay, competition with immobilised ligand	98
Serine/threonine-protein kinase ULK1 (ULK1, Homo sapiens, UniProt O75385)	cell-free assay, competition with immobilised ligand	70
Calcium/calmodulin-dependent protein kinase type 1G (CAMK1G, Homo sapiens, UniProt Q96NX5)	cell-free assay, competition with immobilised ligand	100
Tyrosine-protein kinase Fgr (FGR, Homo sapiens, UniProt P09769)	cell-free assay, competition with immobilised ligand	75

Set 2
Compound: COc1cc2ncc(-c3ccccc3)nc2cc1OC
Observed: enzyme activity
Mode: inhibitor
Tested at: 0.5 µM
Relative to: control
target	remaining activity [%]
Serine/threonine-protein kinase Chk2 (CHEK2, Homo sapiens, UniProt O96017)	94.2
TGF-beta receptor type-2 (TGFBR2, Homo sapiens, UniProt P37173)	75
Calcium/calmodulin-dependent protein kinase type II subunit delta (CAMK2D, Homo sapiens, UniProt Q13557)	87.5
Serine/threonine-protein kinase OSR1 (OXSR1, Homo sapiens, UniProt O95747)	100
TGF-beta receptor type-1 (TGFBR1, Homo sapiens, UniProt P36897)	101
Inhibitor of nuclear factor kappa-B kinase subunit epsilon (IKBKE, Homo sapiens, UniProt Q14164)	98.9
cGMP-dependent protein kinase 1, isoform beta (PRKG1, Homo sapiens, UniProt Q13976)	96.2
STE20/SPS1-related proline-alanine-rich protein kinase (STK39, Homo sapiens, UniProt Q9UEW8)	88
Calcium/calmodulin-dependent protein kinase kinase 2 (CAMKK2, Homo sapiens, UniProt Q96RR4)	114
Inhibitor of nuclear factor kappa-B kinase subunit beta (IKBKB, Homo sapiens, UniProt O14920)	101
Mitogen-activated protein kinase 9 (MAPK9, Homo sapiens, UniProt P45984)	93.1
Protein kinase C beta type, isoform beta-I (PRKCB, Homo sapiens, UniProt P05771)	105
Protein kinase C alpha type (PRKCA, Homo sapiens, UniProt P17252)	103
Cyclin-dependent kinase 5, with p25 (CDK5, Homo sapiens, UniProt Q00535)	94.6
Serine/threonine-protein kinase Nek2 (NEK2, Homo sapiens, UniProt P51955)	85.3
Mitogen-activated protein kinase kinase kinase 3 (MAP3K3, Homo sapiens, UniProt Q99759)	90.3
Death-associated protein kinase 2 (DAPK2, Homo sapiens, UniProt Q9UIK4)	97.3
Serine/threonine-protein kinase STK11 (STK11, Homo sapiens, UniProt Q15831)	86.8
Death-associated protein kinase 1 (DAPK1, Homo sapiens, UniProt P53355)	99.7
Tyrosine-protein kinase Lyn, isoform B (LYN, Homo sapiens, UniProt P07948)	96.9
G protein-coupled receptor kinase 3 (GRK3, Homo sapiens, UniProt P35626)	94.3
cAMP-dependent protein kinase catalytic subunit alpha (PRKACA, Homo sapiens, UniProt P17612)	99.4
Serine/threonine-protein kinase 10 (STK10, Homo sapiens, UniProt O94804)	89.6
Cyclin-dependent kinase 4, with cyclin D1 (CDK4, Homo sapiens, UniProt P11802)	103

Set 3
Cell line: HaCaT
Tested at: 100 µM
Time: 36 h
SMILES	viability
CN1C[C@@H]2C[C@H]1CN2c1cc2c(cc1F)c(=O)c(C(=O)O)cn2C1CC1	37.4%
CC(C)C(=O)Oc1ccc(CO)cc1[C@H](CCN(C(C)C)C(C)C)c1ccccc1	5.06%
C[C@]12C=CC(=O)C=C1CC[C@@H]1[C@@H]2C(=O)C[C@@]2(C)[C@H]1CC[C@]2(O)C(=O)CO	112%
CCc1nc(N)nc(N)c1-c1ccc(Cl)cc1	53.4%
COc1ccccc1OCC(O)CO (stereo not drawn)	86%
CC(C)(C)NC[C@H](O)COc1nsnc1N1CCOCC1	85.4%
Cc1coc2c1C(=O)C(=O)c1c-2ccc2c(C)cccc12	7.89%
C/C=C1\NC(=O)[C@H]2CSSCC/C=C/[C@H](CC(=O)N[C@H](C(C)C)C(=O)N2)OC(=O)[C@H](C(C)C)NC1=O	7.93%
Cc1ccnc(NS(=O)(=O)c2ccc(N)cc2)n1	72.5%
Cn1cc[nH]c1=S	92.7%
CCCCC1(COC(=O)CCC(=O)O)C(=O)N(c2ccccc2)N(c2ccccc2)C1=O	91.5%
C/C=C(/C(=C/C)c1ccc(O)cc1)c1ccc(O)cc1	4.91%
O=C(NC(Cc1cc(=O)[nH]c2ccccc12)C(=O)O)c1ccc(Cl)cc1 (stereo not drawn)	97.7%

Set 4
Structure (SMILES): Cc1nc(Nc2ncc(C(=O)Nc3c(C)cccc3Cl)s2)cc(N2CCN(CCO)CC2)n1
Mode: inhibitor
target	conditions	inhibition [%]
Serine/threonine-protein kinase MRCK gamma (CDC42BPG, Homo sapiens, UniProt Q6DT37)	10 µM	98
Serine/threonine-protein kinase MARK2 (MARK2, Homo sapiens, UniProt Q7KZI7)	10 µM	< 50
Protein kinase C epsilon type (PRKCE, Homo sapiens, UniProt Q02156)	10 µM	< 50
Testis-specific serine/threonine-protein kinase 1 (TSSK1B, Homo sapiens, UniProt Q9BXA7)	1 µM	< 50
Serine/threonine-protein kinase 25 (STK25, Homo sapiens, UniProt O00506)	10 µM	< 50
Tyrosine-protein kinase JAK3 (JAK3, Homo sapiens, UniProt P52333)	1 µM	81
Inhibitor of nuclear factor kappa-B kinase subunit alpha (CHUK, Homo sapiens, UniProt O15111)	10 µM	< 50
Insulin receptor-related protein (INSRR, Homo sapiens, UniProt P14616)	10 µM	< 50
MAP kinase-activated protein kinase 5 (MAPKAPK5, Homo sapiens, UniProt Q8IW41)	10 µM	< 50
Cyclin-dependent kinase 7 (CDK7, Homo sapiens, UniProt P50613)	1 µM	< 50
Focal adhesion kinase 1 (PTK2, Homo sapiens, UniProt Q05397)	10 µM	< 50

Repeated from above (set 4):
target	conditions	inhibition [%]
Serine/threonine-protein kinase 25 (STK25, Homo sapiens, UniProt O00506)	10 µM	< 50
Insulin receptor-related protein (INSRR, Homo sapiens, UniProt P14616)	10 µM	< 50
Focal adhesion kinase 1 (PTK2, Homo sapiens, UniProt Q05397)	10 µM	< 50
Serine/threonine-protein kinase MRCK gamma (CDC42BPG, Homo sapiens, UniProt Q6DT37)	10 µM	98
MAP kinase-activated protein kinase 5 (MAPKAPK5, Homo sapiens, UniProt Q8IW41)	10 µM	< 50
Tyrosine-protein kinase JAK3 (JAK3, Homo sapiens, UniProt P52333)	1 µM	81
Serine/threonine-protein kinase MARK2 (MARK2, Homo sapiens, UniProt Q7KZI7)	10 µM	< 50
Testis-specific serine/threonine-protein kinase 1 (TSSK1B, Homo sapiens, UniProt Q9BXA7)	1 µM	< 50
Inhibitor of nuclear factor kappa-B kinase subunit alpha (CHUK, Homo sapiens, UniProt O15111)	10 µM	< 50
